Experimental data pooled from the literature.
Each numbered part is a random draw from the data of one study; scales do not carry over between parts.

Set 1
Target: Histone acetyltransferase KAT6A, both winged helices, GST fusion (KAT6A, Homo sapiens, UniProt Q92794, residues 1-181)
Technique: protein binding microarray
Molecule type: double-stranded DNA, one strand shown
Matrix: in vitro
Concentration: not given
Setting: 8-mer, flanks averaged, mean of 2 arrays, mostly near background
Baseline: not given
Direction: higher = stronger binding
Measurement: E-score
Construct (chain): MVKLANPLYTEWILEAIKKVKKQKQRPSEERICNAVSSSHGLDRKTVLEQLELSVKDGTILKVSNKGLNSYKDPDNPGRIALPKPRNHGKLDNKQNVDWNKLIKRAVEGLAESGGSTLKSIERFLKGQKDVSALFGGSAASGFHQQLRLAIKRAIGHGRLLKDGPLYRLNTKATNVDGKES
AGGCCGAT: 0.188
TCCAGGCA: -0.132
GTAACGCA: 0.14
CCCGCCGA: 0.293
GGATCGAA: 0.135
TCTACTAA: -0.0211
ACAGCACA: -0.0345
ATCCACAA: -0.174
AGTTTATA: -0.0313
AAGTGCCT: -0.255
AGCGGCCT: 0.231
CTTATGGC: -0.0592
GTTATACA: -0.107
CTGACTCA: -0.136
AATTCAAA: -0.12
AGCGAAAG: 0.0515
CCCAAATC: -0.125
AATGAACG: 0.0521

Set 2
Target: Sal-like protein 4, full length isoform B (SALL4, Homo sapiens, UniProt Q9UJQ4-2, residues 1-616)
Technique: universal PBM
Molecule type: double-stranded DNA, one strand shown
Matrix: in vitro
Concentration: not given
Setting: 8-mer, flanks averaged, mean of replicates
Direction: higher = stronger binding
Measurement: E-score
Target sequence (chain): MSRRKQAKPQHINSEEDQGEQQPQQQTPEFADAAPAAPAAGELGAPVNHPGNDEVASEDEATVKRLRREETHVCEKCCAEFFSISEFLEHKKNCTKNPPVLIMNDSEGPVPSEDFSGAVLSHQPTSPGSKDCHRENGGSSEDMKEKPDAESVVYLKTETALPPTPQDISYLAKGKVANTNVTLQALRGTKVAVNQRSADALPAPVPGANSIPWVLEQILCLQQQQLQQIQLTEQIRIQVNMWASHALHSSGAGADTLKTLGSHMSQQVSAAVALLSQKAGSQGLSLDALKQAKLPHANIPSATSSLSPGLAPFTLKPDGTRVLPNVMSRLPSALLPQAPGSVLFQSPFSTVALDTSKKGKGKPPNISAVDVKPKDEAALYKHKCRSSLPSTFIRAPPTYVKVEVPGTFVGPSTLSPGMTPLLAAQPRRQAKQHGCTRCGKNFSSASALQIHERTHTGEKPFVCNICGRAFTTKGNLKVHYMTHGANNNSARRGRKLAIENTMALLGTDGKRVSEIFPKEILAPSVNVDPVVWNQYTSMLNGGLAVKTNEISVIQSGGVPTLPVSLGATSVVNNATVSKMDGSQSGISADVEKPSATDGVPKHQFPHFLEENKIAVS
CTTATGGA: 0.176
ATTTATAC: 0.3
CTGGAACA: 0.0723
CCAGCTGA: -0.145
GGAAATAC: 0.139
ACTTCGGG: -0.132
ACAGTGCT: -0.0986
GGATGATA: 0.183
CCCTTCGG: -0.366
ATTAAATA: 0.426
CAACAGGA: -0.133
ACGTTGAT: 0.17
ATACAGAG: 0.118
AGGCCACA: -0.256
CTACCCTC: -0.131
GGTCTGAA: -0.0641
GAGGGTGC: -0.192
CTGATGAA: 0.0708
AGGGGCTC: -0.306
GCCTGCGA: -0.184
CTGAACTC: -0.148
CGGTCTAA: -0.0021
CAAACCGG: -0.156
ATAACTTG: 0.271
CGTTCTAG: -0.0826

Set 3
Target: Phosphate system positive regulatory protein PHO4, full length, GST-tagged (PHO4, Saccharomyces cerevisiae, UniProt P07270, residues 1-312)
Technique: competition protein-binding microarray
Molecule type: double-stranded DNA, one strand shown
Matrix: in vitro
Concentration: 2 µM
Setting: whole 60-bp probe, lowest competitor level
Added: Cbf1 competitor, 0.05 µM
Direction: higher = stronger binding
Measurement: fluorescence intensity
Constant ends, left off below: … GTCTTGATTCGCTTGACGCTGCTG
Construct (chain): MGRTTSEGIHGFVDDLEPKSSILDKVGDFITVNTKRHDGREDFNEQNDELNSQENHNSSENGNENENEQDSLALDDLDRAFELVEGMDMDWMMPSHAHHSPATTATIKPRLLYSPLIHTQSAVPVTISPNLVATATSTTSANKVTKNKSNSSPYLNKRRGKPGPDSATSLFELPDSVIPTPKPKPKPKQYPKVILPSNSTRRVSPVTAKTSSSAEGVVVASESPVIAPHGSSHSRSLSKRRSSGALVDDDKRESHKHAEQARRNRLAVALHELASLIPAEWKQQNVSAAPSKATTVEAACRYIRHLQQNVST
GACCAGGAAAAAGATAGCGTGCAAAGCAGGACGATA: 5570 a.u.
CGAAGAGGTTCCTATCACCTGCATTCGGTGTTTCTA: 4120 a.u.
TATATCAGATAAGGACACGTGCCGATTCATTGGAAA: 22500 a.u.
CGGTCGGATGGAAAACACGTGACAAGAAAGTCCCCG: 14600 a.u.
GGAAATAACGCTCGAGGCGTGCTTTGTCCTTTTTTG: 7570 a.u.
TGGTCTTGGCCTTGACCGGTGATACGCGTCTTGTGC: 3250 a.u.
CTTTCCCGATCTTGGACTGTGGGTGTAGCACATTTG: 4850 a.u.
CTTCTGTAAATTTGCCACGTGGGTGGACGCGCCCCG: 18200 a.u.
TCTGATACGTATCACCACGTGGCCGGTACTTGTTCT: 17500 a.u.
AAAGGCCATCCATACTACGTGGGTACTCAATACCAT: 8120 a.u.
AAAAGGTTGACTGGGCTCGTGAAGATTTCGAAAAGA: 4580 a.u.
CCGCATTCGACTCACCACGTGGAATATCCTTCTCAG: 17900 a.u.
CCGACCTTGTTGAAGTGCATGACAATACCGTCGTCC: 4300 a.u.
AAAGCGGTAATTTGGATGGTGGGTGCAGATATCTAT: 4660 a.u.
ACTCTGTTTGCGAGTCACGTGAAATATTTCCTGTGG: 9860 a.u.
CCGCCAAGAGAAATGCTCGTGACTCGTTGGCTCAAT: 7410 a.u.
TAAGCAAATGAACCGCACATGTAGGCCGCAAATCTT: 7970 a.u.
TTATTTGGTGTTTCTTTCGTGCCGATAGGTTTCGAA: 4210 a.u.
CAAAGGTGAAATTGCCGCGTGGCCGCTAGATCCTGC: 9520 a.u.
GATTCATGGCTTCACCACGGGTCTTTGGCCAAGAGT: 7600 a.u.
TCCTTGCAGTACTATCACCTGCACCGGTTACCATCC: 4970 a.u.
TAGAGGCCCAACCGTCACGGCGTCTGGCTACGAACC: 3350 a.u.
CGTCCTAGCGATTGAGCTGTGGGTGCCATGAGGAAG: 5950 a.u.
TATGGGCTTATTAAGCTCGTGCTGTAAGATCTTGAA: 12600 a.u.
ACATACCATATCCTGAACGTGAAGATCCCAGATGGA: 8190 a.u.

Set 4
Target: RING finger protein unkempt homolog, zinc fingers 1-6, GST-SBP tag (UNK, Homo sapiens, UniProt Q9C0B0, residues 30-357)
UniProt Q9C0B0, sequence (30-357, looked up): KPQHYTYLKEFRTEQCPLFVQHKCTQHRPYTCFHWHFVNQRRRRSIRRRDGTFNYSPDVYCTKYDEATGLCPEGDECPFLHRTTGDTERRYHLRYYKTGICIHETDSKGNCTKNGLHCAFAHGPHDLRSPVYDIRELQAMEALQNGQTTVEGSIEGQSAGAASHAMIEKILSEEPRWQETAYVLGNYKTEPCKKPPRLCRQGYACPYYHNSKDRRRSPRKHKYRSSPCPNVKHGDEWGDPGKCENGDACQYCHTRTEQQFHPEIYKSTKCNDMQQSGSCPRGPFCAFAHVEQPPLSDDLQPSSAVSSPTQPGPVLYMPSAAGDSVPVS
Technique: RNA Bind-n-Seq
Molecule type: RNA
Matrix: in vitro
Concentration: not given
Setting: RNA with constant flanks, human and mouse sites, ends assumed
Baseline: input RNA pool
Direction: higher = stronger binding
Measurement: bound/input enrichment
Constant ends, left off below: GGGAGUUCUACAGUCCGACGAUC … CAACAGAGGAUUGAGCAUCA
GAAACAUUUAAAUUUAAAGAAGCUGUUGUUUUAGGGAGCACGGACUUCCUAGAAGAUGAUAUAGAAAAAAUUGUAGAAGAACUGGGAAAAGAAUACAAAGGCAAUGCUUAUCAUUUAAUG: 1.46 ratio
AAUCUGGGUUUUGUCAAAAUAGUACUAUAGAAUAAAUGGGAGAAAGAAGAAAGCAAGCUAAAUGGGAAACCGUGAAUGAAUGGAGGACGAAAGAAGAAAAAGGCAAAGUAAAGAGAGAAG: 5.56 ratio
UAUUCCAUAAAACAAGAAGGACAAAACUCUCAAAAAUGUAUUUCAAGUCAGUGACCAGAAAAAUCCCACCCCUUGCCCUUUCCCCAAAGGACCUUUUCUGUACAUGACACUUUUUUGUUG: 0.675 ratio
ACCAACAAAGUUGCUUCCCAGAAAGGAAUGAGCGUGUAUGGGCUUGGGCGGCAAGUAUAUGACCCCAAGUACUGUGCCGCACCCACAGAACCUGUCAUUCACAACGGAAGCCAGGGCACG: 0.154 ratio
GGAGGCCACCCCAAACCCCAGCCCCAACUCCAGGGGCACCUAUGAGAUGGCCAUGCUCAACCCCCCUCCCAGACAGGCCCUCCCUGUCUCCAGGGCCCCCACCGAGGUUCCCAGGGCUGG: 0.342 ratio
AAGGAUUCAACACAUCCAGUGGAUUUUCUGGAUGCAUUCAGAACAUUUUACUUGGAUGGAUUAUUUACUGAUAUUACUCUUCAGUGUCCUUCAGGCAUAAUUUUCCAUUGUCACCGAGCC: 0.17 ratio
GCCUGGGCUCUCUUGGGCUUUAUCCAUGUCUUUAGAUUUGUGUUUGCCUUUUGUUUUUUUAACCGCGCAGUUCAUUGGCCACUCUGCACGCAUUCAGUAUUACCAUGGAGCUGGGAAUCU: 0.439 ratio
AUUGUAUAUUAUGAACAGCUGACUAAACAUAAUCACCACAGAAUAAGACAAUAUCAUAUAAUAGAUUAAAAUGUUGUGCAUCCUUUUGUCUGGUUAAAAAUUUUUUAAAAAAACUUCAAU: 11.6 ratio
GAAAAUAUAUUUAGUCGCAUAGUAGAUAUACAUGAACUUAGUGUAAAGUUACUGGGCCAUAUAGAAGAUACAGUAGAAAUGACAGAUGAAGGCAGUCCCCAUCCACUAGUAGGAAGCUGC: 4.73 ratio
AAAGGAGAAUCCGGCCAGUCAUGGCCUAGGUUAACAAAGGAAAGGGCAAAGCUUAAUUGGCUCAGUGUGGACUUCAAUAAUUGGAAAGACUGGGAGGAUGACUCAGAUGAAGACAUGUCG: 0.808 ratio
GUAUCAAAAGUUUUAUUGUCCAUAUGUUCUCUACUUUGUGAUCCUAAUCCAGAUGACCCCUUAGUACCAGAUAUUGCACAAAUCUAUAAAUCAGACAAAGAAAAAUACAACAGACAUGCA: 2.48 ratio

Set 5
Target: PABPC1L2, full length, GST fusion (mouse, UniProt A0ABA7IW68)
Technique: RNAcompete
Molecule type: RNA
Matrix: in vitro
Concentration: 20 nM
Setting: 7-mer, probes averaged, single round
Baseline: mean of 7-mers
Direction: higher = stronger binding
Measurement: 7-mer Z-score
Construct (chain): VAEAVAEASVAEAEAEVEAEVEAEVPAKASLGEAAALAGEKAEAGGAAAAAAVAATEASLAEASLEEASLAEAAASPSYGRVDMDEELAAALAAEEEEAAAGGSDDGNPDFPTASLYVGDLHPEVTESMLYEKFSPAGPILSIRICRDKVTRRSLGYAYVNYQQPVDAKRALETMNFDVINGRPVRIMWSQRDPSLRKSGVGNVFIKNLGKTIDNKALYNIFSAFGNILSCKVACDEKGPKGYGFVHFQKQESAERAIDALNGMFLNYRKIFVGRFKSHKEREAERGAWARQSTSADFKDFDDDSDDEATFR
GGAUCUA: -0.0446
ACGUAGA: -0.0138
GCUGAGA: 0.0787
UCUCCUU: -0.407
UACCCCC: -0.492
GGAGACU: 0.0388
GAAUUAG: -0.148
CCUAAUC: -0.26
GAGUUCG: -0.42
AUGGCCG: -0.0283
GGAUUUU: -0.15
CAUAUCU: -0.222
GGAUAGA: 0.109
CGCGCAG: -0.0863
GCCAGGU: -0.15
CGGUUAC: -0.0536
CAAAAAC: 18
AGACAGC: -0.132
ACUCUCU: -0.331
UCCCGAC: -0.316
UAAUCGU: -0.336
UAGAAUU: -0.124
